Published values from different studies.
Each line is one published result; not all experiments were run side by side. ± marks the error that the study gave.

SMILES | test | test system | conditions | quantity | result
CC(C)n1ncc2c(C(=O)NCC3(C)CNC3)cc(C3CC3)nc21 | – | Swiss Webster mouse pups, uninfected, spinal cord | intraperitoneal, 50 mg/kg, 1 h | concentration | 575 ± 100 ng/g
CC(=O)Nc1noc(C)n1 | HPLC-MS | C57BL/6 mouse, male, brain | oral, 60 mg/kg, 45 min | concentration | 4000 to 9970 ng/g
NC(=O)N1c2ccccc2C[C@H](O)c2ccccc21 | – | mouse (NMRI), brain organic phase | oral, 50 mg/kg eslicarbazepine acetate, 60 min, organic phase 20% of brain | concentration | 102 µM
COC(=O)C[C@](O)(CCCC(C)(C)O)C(=O)O[C@@H]1C(OC)=C[C@]23CCCN2CCc2cc4c(cc2[C@H]13)OCO4 | – | CD1 mouse, esophagus | subcutaneous, 1 mg/kg, 24 h | concentration | not detected
COc1ccc(S(=O)(=O)Nc2nc(-c3cccc([N+](=O)[O-])c3)c(CN3CCCCC3)s2)cc1OC | – | mouse wild type, plasma | oral, 300 mg/kg, 5 h | concentration | 40 µM
S=C(NCCc1nc(-c2ccccc2)cs1)N1CCCCC1 | – | mouse, plasma | intraperitoneal, 5 mg/kg, 1 h | concentration | 2 ± 0.885 µM
CCn1nc(C2CC2)cc1Nc1nc(C(=O)NCCCCCc2cccc3c2CN(C2CCC(=O)NC2=O)C3=O)nc2[nH]c3cc(-c4c(C)noc4C)c(OC)cc3c12 (stereo not shown) | – | female SCID C.B-17 mouse, RS4;11 xenograft, tumour | intravenous, 5 mg/kg single, 1 h | concentration in tumour | 136 ng/g
CSc1cc(C)nc(SC)c1NC(=O)CN1CCN(CCSc2nc3ccccc3[nH]2)CC1 | – | mouse Crl:CD1 (ICR) female, cerebrum | intranasal repeated, 162 µg in 7 N HCl, 45 min, 7 days dosing | concentration | 12 ng/g
Cc1nc(Nc2ncc(C(=O)Nc3c(C)cccc3Cl)s2)cc(N2CCN(CCO)CC2)n1 | – | C57BL/6 mouse, male, wild type, spleen | oral, 10 mg/kg, 5 min | concentration | 46.5 ± 11.8 ng/g
Cc1cc(-c2cc(OC(=O)c3ccccc3)ccc2Cl)cc2nnc(Nc3ccc(OCCN4CCCC4)cc3)nc12 | – | C57BL/6 mouse, sclera/choroid | topical, 1%, 24 h | concentration | 0.026 µM

Excerpt of the above:
SMILES | test | test system | conditions | quantity | result
CSc1cc(C)nc(SC)c1NC(=O)CN1CCN(CCSc2nc3ccccc3[nH]2)CC1 | – | mouse Crl:CD1 (ICR) female, cerebrum | intranasal repeated, 162 µg in 7 N HCl, 45 min, 7 days dosing | concentration | 12 ng/g
